Experimental data pooled from the literature.
Numbers after ± are the reported error.
Chain of UniProt P56524 (whole entry, looked up): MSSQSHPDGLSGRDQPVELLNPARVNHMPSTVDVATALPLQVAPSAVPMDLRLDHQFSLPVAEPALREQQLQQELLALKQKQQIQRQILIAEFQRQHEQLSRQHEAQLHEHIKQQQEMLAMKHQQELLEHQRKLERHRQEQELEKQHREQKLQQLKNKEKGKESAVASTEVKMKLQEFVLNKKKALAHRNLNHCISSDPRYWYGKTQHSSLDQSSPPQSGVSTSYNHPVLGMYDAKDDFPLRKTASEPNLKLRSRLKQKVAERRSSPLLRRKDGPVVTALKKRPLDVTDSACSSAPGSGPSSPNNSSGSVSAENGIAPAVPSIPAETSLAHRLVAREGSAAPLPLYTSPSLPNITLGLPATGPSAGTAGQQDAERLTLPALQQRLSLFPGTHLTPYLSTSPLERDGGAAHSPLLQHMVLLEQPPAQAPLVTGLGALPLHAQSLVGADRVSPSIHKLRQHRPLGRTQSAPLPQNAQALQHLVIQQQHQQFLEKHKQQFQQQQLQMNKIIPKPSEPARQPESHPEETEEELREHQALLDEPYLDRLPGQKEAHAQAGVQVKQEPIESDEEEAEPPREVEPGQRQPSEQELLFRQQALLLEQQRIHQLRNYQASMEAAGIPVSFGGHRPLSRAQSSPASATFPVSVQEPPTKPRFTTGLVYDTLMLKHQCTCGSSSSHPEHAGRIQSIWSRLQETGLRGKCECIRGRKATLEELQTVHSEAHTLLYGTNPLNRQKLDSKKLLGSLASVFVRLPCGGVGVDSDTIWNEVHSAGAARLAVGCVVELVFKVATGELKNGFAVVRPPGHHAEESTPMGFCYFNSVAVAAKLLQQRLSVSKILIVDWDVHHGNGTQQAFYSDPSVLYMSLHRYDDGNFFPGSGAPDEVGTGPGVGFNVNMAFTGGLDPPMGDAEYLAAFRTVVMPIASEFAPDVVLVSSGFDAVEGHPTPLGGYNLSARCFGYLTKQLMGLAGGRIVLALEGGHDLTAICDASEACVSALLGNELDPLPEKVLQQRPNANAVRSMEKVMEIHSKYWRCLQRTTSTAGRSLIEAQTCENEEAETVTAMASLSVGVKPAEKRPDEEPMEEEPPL
Chain of UniProt P03303 (whole entry, looked up): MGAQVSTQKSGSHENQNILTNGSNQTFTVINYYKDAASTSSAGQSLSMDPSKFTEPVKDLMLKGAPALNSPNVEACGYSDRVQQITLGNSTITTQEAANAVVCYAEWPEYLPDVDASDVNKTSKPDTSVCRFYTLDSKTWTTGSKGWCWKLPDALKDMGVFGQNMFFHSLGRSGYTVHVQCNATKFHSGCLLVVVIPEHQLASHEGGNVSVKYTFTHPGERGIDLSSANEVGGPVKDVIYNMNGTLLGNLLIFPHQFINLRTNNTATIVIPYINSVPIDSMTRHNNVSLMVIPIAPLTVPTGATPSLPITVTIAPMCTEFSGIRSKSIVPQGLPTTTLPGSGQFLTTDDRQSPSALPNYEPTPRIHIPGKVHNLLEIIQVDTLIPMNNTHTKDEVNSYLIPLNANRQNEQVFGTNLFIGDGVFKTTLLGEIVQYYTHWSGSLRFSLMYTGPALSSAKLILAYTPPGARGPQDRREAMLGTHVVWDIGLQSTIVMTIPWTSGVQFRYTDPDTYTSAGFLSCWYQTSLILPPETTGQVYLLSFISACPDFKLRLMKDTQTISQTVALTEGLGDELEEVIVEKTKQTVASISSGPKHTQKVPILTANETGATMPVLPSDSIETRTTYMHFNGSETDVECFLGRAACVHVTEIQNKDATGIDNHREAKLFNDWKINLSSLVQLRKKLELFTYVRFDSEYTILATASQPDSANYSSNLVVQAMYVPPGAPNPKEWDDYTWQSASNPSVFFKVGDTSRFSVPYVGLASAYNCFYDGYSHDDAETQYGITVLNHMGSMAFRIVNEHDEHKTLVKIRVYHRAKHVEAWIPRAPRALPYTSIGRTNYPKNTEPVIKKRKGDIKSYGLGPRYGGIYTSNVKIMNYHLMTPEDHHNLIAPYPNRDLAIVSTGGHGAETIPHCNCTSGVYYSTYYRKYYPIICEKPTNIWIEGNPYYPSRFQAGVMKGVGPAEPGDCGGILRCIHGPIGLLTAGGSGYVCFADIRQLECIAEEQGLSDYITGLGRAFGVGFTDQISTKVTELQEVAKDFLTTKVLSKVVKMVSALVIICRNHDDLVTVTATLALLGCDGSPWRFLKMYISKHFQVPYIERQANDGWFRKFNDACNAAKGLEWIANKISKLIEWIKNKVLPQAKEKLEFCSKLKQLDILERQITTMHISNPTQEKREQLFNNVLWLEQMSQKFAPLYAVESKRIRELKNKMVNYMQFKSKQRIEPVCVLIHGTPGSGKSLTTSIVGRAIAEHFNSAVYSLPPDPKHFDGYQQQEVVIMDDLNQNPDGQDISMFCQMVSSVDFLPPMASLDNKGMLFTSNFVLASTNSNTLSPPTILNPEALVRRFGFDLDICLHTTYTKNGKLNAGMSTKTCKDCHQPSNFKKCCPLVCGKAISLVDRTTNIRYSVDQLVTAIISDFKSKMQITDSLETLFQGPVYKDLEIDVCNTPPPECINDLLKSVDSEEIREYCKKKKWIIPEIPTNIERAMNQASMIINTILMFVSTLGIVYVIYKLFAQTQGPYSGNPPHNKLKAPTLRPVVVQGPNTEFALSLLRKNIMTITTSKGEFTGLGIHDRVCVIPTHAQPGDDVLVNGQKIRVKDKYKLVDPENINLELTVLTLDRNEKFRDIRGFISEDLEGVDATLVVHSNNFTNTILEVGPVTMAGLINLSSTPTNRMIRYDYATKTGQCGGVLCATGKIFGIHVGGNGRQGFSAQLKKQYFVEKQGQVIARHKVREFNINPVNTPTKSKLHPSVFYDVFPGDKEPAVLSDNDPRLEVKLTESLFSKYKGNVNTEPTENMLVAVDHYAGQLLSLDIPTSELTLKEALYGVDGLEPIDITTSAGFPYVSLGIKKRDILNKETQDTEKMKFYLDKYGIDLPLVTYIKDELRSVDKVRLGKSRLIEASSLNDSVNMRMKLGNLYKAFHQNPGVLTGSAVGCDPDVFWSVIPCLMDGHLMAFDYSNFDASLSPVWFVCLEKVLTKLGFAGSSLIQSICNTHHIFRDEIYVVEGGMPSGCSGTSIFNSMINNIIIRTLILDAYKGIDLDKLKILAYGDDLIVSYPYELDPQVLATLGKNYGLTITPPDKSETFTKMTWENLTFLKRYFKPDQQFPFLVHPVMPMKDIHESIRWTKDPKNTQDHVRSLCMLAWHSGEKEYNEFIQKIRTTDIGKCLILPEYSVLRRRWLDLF
Chain of UniProt O14939 (whole entry, looked up): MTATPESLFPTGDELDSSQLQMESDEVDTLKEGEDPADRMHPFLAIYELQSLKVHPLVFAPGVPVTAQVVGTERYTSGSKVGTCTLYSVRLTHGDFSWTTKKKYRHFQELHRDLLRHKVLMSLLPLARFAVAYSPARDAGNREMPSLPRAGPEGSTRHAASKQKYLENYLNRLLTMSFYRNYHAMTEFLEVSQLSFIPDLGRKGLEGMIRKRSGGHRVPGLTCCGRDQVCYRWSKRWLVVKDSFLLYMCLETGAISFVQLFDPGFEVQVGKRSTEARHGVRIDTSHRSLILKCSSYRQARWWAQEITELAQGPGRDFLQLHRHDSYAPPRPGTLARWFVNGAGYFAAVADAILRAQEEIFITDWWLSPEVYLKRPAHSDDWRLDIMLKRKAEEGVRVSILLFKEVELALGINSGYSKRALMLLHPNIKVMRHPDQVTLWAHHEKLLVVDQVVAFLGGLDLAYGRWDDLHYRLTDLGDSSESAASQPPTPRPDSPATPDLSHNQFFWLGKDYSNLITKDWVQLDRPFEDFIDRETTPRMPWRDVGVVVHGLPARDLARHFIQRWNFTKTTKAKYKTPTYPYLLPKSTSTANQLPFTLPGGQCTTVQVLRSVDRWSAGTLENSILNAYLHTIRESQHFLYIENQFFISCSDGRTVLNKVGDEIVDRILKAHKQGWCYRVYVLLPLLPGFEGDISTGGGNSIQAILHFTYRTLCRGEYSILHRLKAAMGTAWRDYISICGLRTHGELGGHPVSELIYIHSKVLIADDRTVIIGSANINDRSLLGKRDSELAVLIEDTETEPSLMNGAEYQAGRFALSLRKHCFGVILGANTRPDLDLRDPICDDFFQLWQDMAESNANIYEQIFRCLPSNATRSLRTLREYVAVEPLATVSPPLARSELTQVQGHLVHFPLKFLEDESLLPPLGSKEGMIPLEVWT
Chain of UniProt P52895 (whole entry, looked up): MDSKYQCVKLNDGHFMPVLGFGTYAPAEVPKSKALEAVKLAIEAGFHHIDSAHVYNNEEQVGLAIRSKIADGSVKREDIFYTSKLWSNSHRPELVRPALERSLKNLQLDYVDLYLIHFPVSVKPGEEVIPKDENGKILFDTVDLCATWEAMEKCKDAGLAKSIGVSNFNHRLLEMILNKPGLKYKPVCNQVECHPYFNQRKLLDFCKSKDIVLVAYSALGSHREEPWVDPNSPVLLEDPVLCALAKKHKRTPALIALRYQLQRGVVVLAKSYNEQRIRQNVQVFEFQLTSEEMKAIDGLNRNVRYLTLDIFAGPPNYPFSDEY
Chain of UniProt A6TAP2 (whole entry, looked up): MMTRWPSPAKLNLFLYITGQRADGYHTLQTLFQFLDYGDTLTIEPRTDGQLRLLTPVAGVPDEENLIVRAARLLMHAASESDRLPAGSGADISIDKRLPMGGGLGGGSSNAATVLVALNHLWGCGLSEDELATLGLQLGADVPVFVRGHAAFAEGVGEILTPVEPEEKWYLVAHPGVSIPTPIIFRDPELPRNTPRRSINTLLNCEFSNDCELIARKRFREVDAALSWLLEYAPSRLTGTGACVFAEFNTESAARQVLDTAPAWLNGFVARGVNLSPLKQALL

SMILES | target | assay | test system | conditions | IC50
O=C(Cc1ccc(F)cc1)Nc1nc(-c2ccccn2)cs1 | CTP synthase 2 (CTPS2, Homo sapiens, UniProt Q9NRF8) |  |  |  | > 100000 nM
C[C@]12CCC[C@H]1[C@@H]1CCc3c(cc(Br)c(O)c3Br)[C@H]1CC2 | Aldo-keto reductase family 1 member C2 (AKR1C2, Homo sapiens, UniProt P52895) | enzyme activity, inhibitor, absorbance |  | pH 9 | 900 nM
CC(=O)SC[C@@H](C)C(=O)Nc1ccccc1-c1nn[nH]n1 | Metallo-beta-lactamase VIM-2 (VIM-2, Escherichia coli, UniProt Q5U7L7) | enzyme activity, inhibitor, fluorescence |  | with preincubation | 630 nM
O=C1c2ccccc2[Se](=O)N1c1ccccc1 (stereo not shown) | Histone deacetylase 4 (HDAC4, Homo sapiens, UniProt P56524) | enzyme activity, inhibitor, fluorescence |  |  | 4700 nM
CC(C)[C@H](NC(=O)[C@H](CO)NC(=O)[C@@H](N)CC(=O)O)C(=O)N[C@H]1CSC(=O)[C@H](Cc2ccccc2)NC(=O)[C@H](Cc2ccc(O)cc2)NC(=O)[C@H](CO)NC(=O)[C@H](C)NC1=O | accessory gene regulator protein C (Staphylococcus aureus, UniProt O33587) |  |  |  | > 1000 nM
Cc1ccc(C(C)C)cc1.[Cl][Au].[Cl][Ru][Cl].c1ccc(P(CP(c2ccccc2)c2ccccc2)c2ccccc2)cc1 | Cathepsin B (CTSB, Homo sapiens, UniProt P07858) | inhibitor |  | 10 min preincubation, pH 6, room temperature, with: Z-FR-AMC | 31400 nM
Nc1ccn(CC2COP(=O)(OCCCCCCNC(=O)CCCCC3SCC4NC(=O)NC43)CO2)c(=O)n1 (mixture of isomers) | Sodium-dependent multivitamin transporter (Canis lupus familiaris, UniProt A0A8I3MY61) | biotin uptake | MDCK-MDR1 | with: [3H]-biotin | 11200 ± 1480 nM
CC[C@H](C)[C@H](N)C(=O)N[C@@H](CO)C(=O)N[C@@H](CCC(N)=O)C(=O)N[C@H](C(=O)N[C@@H](CC(N)=O)C(=O)N[C@@H](CCC(=O)O)C(=O)N[C@@H](CCCCN)C(=O)N[C@H](C(=O)N[C@@H](CC(N)=O)C(=O)N[C@@H](CCC(N)=O)C(=O)N[C@@H](CO)C(=O)N[C@@H](CC(C)C)C(=O)N[C@@H](C)C(=O)N[C@@H](Cc1ccccc1)C(=O)N[C@H](C(=O)N[C@@H](CCCNC(=N)N)C(=O)N[C@@H](CCCCN)C(=O)N[C@@H](CO)C(=O)N[C@@H](CC(=O)O)C(=O)N[C@@H](CCC(=O)O)C(=O)N(CCOC)CC(=O)N(CCOC)CC(=O)N(CCOC)CC(N)=O)[C@@H](C)CC)[C@@H](C)CC)C(C)C | hRSV fusion protein 5-helix bundle | binding, fluorescence polarization |  | with: Fl-C35 tracer 5 nM | > 200000 nM
CC(C)[C@H]1NC(=O)[C@H](CO)NC(=O)[C@H](CCC(N)=O)NC(=O)[C@H](Cc2ccccc2)NC(=O)[C@H](Cc2ccc3ccccc3c2)NC(=O)[C@H](CCCNC(=N)N)NC(=O)[C@H](CCCNC(=N)N)NC(=O)[C@H](CCCNC(=N)N)NC(=O)[C@H](CCCNC(=N)N)NC(=O)[C@H](Cc2c[nH]cn2)NC(=O)[C@H](Cc2ccc(C(F)(F)P(=O)(O)O)cc2)NC(=O)[C@@H]2CCCN2C1=O | Tyrosine-protein phosphatase non-receptor type 1 (PTPN1, Homo sapiens, UniProt P18031) | enzyme activity, inhibitor, absorbance |  |  | 31 nM
CSCC[C@@H](C=O)NC(=O)[C@H](CC(C)C)NC(=O)[C@H](CC(C)C)NC(C)=O | Genome polyprotein, 3C protease (rhinovirus B14, UniProt P03303) | enzyme activity, inhibitor, SAMDI-MS | human rhinovirus | 30 min preincubation, with: substrate 10 µM | 2370 nM
O=C(NCCN1CCC2(CC1)C(=O)NCN2Cc1ccncc1)c1ccc2ccccc2c1 | Phospholipase D2 (Homo sapiens, UniProt O14939) | enzyme activity, inhibitor |  |  | 850 nM
O=c1c(O)c(-c2ccc(O)c(O)c2)oc2cc(O)cc(O)c12 | mRNA cap guanine-N(7) methyltransferase (RNMT, Homo sapiens, UniProt O43148) | enzyme activity, inhibitor |  |  | 400 nM
O=C(O)c1ccc(Br)cn1 | 4-diphosphocytidyl-2-C-methyl-D-erythritol kinase (ispE, Klebsiella pneumoniae subsp. pneumoniae, UniProt A6TAP2) | enzyme activity, PK/LDH coupled spectrophotometric |  |  | 145000 ± 4500 nM

A few entries again:
SMILES | target | assay | test system | conditions | IC50
CC(C)[C@H](NC(=O)[C@H](CO)NC(=O)[C@@H](N)CC(=O)O)C(=O)N[C@H]1CSC(=O)[C@H](Cc2ccccc2)NC(=O)[C@H](Cc2ccc(O)cc2)NC(=O)[C@H](CO)NC(=O)[C@H](C)NC1=O | accessory gene regulator protein C (Staphylococcus aureus, UniProt O33587) |  |  |  | > 1000 nM
